Assay results of several laboratories.
Every numbered part comes from another study and shows a few of its results, in no order.

Sample 1
Target: Histone acetyltransferase KAT6A, winged helix 1, GST fusion (KAT6A, Homo sapiens, UniProt Q92794, residues 1-85)
Technique: protein binding microarray
Form: double-stranded DNA, one strand shown
Medium: in vitro
Concentration: not given
Setting: 8-mer, flanks averaged, mean of 2 arrays, mostly near background
Reference: not given
Direction: higher = stronger binding
Construct (chain): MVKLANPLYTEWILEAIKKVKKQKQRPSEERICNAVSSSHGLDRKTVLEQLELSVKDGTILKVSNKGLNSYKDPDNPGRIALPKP
The E-score of `ACTGGTCC` is reported as 0.0126.
With `CCAGGTAA` the E-score was -0.149.
`ACTAACCG` has an E-score of 0.246.
For `CAAGCAGG`, the E-score was -0.128.
With `AGTCATTG` the E-score was -0.304.
The E-score of `CCCGAGCC` is reported as 0.277.
`CGCGCCCA` gave an E-score of 0.315.
The E-score of `ACGTCCCT` is reported as -0.087.
`GGGATGAC` has an E-score of -0.0101.
`ACTCCGAA` has an E-score of 0.0243.
`AATTCCCC` has an E-score of 0.0342.
With `ACAACGGA` the E-score was 0.0728.
`GCTACGCC` has an E-score of 0.23.
For `GGACCCAA`, the E-score was -0.133.
`CTCTATAC` has an E-score of -0.0435.
`GCGCGCCA` has an E-score of 0.422.
For `CCGATGAG`, the E-score was 0.0472.
The E-score of `AAGATGCT` is reported as -0.111.
The E-score of `CAGTGGAA` is reported as -0.0465.
The E-score of `CTCGTAGC` is reported as -0.0327.
`CAAATTGC` gave an E-score of -0.1.
For `GCCGCACC`, the E-score was 0.318.
`ATCCGGAG` has an E-score of 0.122.
For `ACTATTTG`, the E-score was -0.0788.
`GAGATCAA` gave an E-score of -0.0105.

Sample 2
Target: Fragile X messenger ribonucleoprotein 1, C-terminal low-complexity region (Fmr1, Mus musculus, UniProt P35922)
Technique: RNA Bind-n-Seq
Form: RNA
Medium: in vitro
Concentration: 200 nM
Setting: whole 134-nt RNA, ends assumed
With: 150 mM LiCl
Reference: input library
Direction: higher = stronger binding
Each molecule: 7-deaza-guanosine replaces G
Shared flanks, not repeated: GGGAGUUCUACAGUCCGACGAUC … UGGAAUUCUCGGGUGUCAAGG
For `ACCAUGCAGGUGGGCAUCUUUGGGAUGUGGGGCAAGGGGGGGAUAGGGAGGGGGGUAACACUUUGGGAACAGGUGGUCCCAGGUCGUUUC`, the log2 enrichment was 1.04.
With `CCUGUGCUACACAUCGUAUGUACCGAAUCGGAAAAAAGGGGAAAAAAGGGGAAAAAAGGGGAAAGUAUUAUGUUACGCCGUUCGGAUCUG` the log2 enrichment was 0.476.
With `CCUGUGCUACACAUCGUAUGUACCGAAUCGGGGAAAAAAAGGGGAAAGGGGAAAAAGGGGAAAGUAUUAUGUUACGCCGUUCGGAUCUGC` the log2 enrichment was 1.05.
For `UAUUAAUUUGAUAUAUUUAUUAUGAUUUGUAGAGGACGUCGGUGAUGAAGGAGAAGAAGAAAAAGAAUUCAUUUCCUAUAACAUCAACAU`, the log2 enrichment was -4.35.
`CAAGUCCUGUGCUACACAUCGUAUGUACCGAAUCGGGCCCGGCCCGGGGCCCGGGAAAGUAUUAUGUUACGCCGUUCGGAUCUGCACUUC` gave a log2 enrichment of -2.24.
For `CAAGUCCUGUGCUACACAUCGUAUGUACCGAAUCGGGAAAAAAAGGGAGGGUGGGAAAGUAUUAUGUUACGCCGUUCGGAUCUGCACUUC`, the log2 enrichment was -0.362.
For `CUCAAGUCCUGUGCUACACAUCGUAUGUACCGAAUCGGUGGAAAAAGGUUUGGAAAGUAUUAUGUUACGCCGUUCGGAUCUGCACUUCCA`, the log2 enrichment was -0.475.
`UAACUUUAGAGGAGGAUCUGAUGGAUAUGUCAGUGGACGUGGAUUUGGGGAUGGCUAUAAUGGGUAUGGAGGAGGACCUGGAGGUGGCAA` gave a log2 enrichment of 0.418.

Sample 3
Target: RNA binding protein fox-1 homolog 2, RRM domain, GST-SBP tag (RBFOX2, Homo sapiens, UniProt O43251-10, residues 100-194)
Technique: RNA Bind-n-Seq
Form: RNA
Medium: in vitro
Concentration: 365 nM
Setting: natural RNA segment, single round, ends assumed
Reference: no-protein control
Direction: higher = stronger binding
Shared flanks, not repeated: GGGAGUUCUACAGUCCGACGAUC … UGGAAUUCUCGGGUGCCAA
Residues (chain): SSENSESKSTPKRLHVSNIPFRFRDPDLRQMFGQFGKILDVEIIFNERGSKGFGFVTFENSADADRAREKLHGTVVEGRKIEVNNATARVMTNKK
`ACUUAAUUUUAAUGUAAUCAUGUCUAAUGAUCCUCAUCUUCAUUCCUUGAGAUUACCCAAGUACCGUCAUGACCAAGAAGCCUUUCCGUCAUUGAGUACCUGAUUUUUAA` — result for “RBNS enrichment (R)”: 0.243.
For `CUGAGGAAUUCUUGUACGCAGUUUUCUUUGGCUUUACGAAGCCGAUUAAAAGACCGUGUGAAAUGAACCUUGCUCUGACAAUUCCCUUGCAUUGCACCACACACUCCUUG`, “RBNS enrichment (R)” read 0.544.
Under “RBNS enrichment (R)”, `ACUUACCACAAUUUGUAACCCUGAAUCUCUCCUGUGCUCUGGUGUUCAGAAAGCUGAGACAGCUGGGCCCAGUUGAUGUUGUACGUGAGAAAGAGGCAGUCUGUUGGAGA` is recorded as 0.301.
For `UAGAAAUUUUGUAAUGUAGAGUUUUAGAGAGAGCACUUUGAAAGAUAAACAUUUUAUUAUGAUGGUGCUAGGUACAAAAUUUAUAGCAUGGGAUGUGAAGAAAAAAAAUG`, “RBNS enrichment (R)” read 10.8.
For `UGACGUAGCCCACGGAGGCAGGCGCUGGAUCGUCACGUCACAUCAGCCCCUGGCGACAAGCAGUGUCUAGAAGAGGAUCUGGAGCCAGGCAGACUGGCUGCUUUUAUUUU`, “RBNS enrichment (R)” read 0.405.
`UUUUUUCUCUUUGGUUCUUGAAUAGCUUAGUUUCUUUAAUAACAAGUCAAACUUUAUUACAACAAUAACUGAAGUUAUUCUUUUAGGUUCUCGUGAAAUUCUCACUGAAA`: “RBNS enrichment (R)” 0.504.
`UUCUACUUAGAAAAACCUAUUGCAGUUAGUUUAUCUUGUAGUAUUCAUCUUUGUAUUCUGAAGAUAAGGUUUGAAUUAAAUUGAUACACACAGAGGGGAACCGAUUUUUU`: “RBNS enrichment (R)” 0.755.
Under “RBNS enrichment (R)”, `GUAUCCUGACUGAUUCAACCCAGCCGAGCAUAAAUUGACUUGAGCGCCUUACCUUUGAUGUCUGAAGCGAAACUCCUUUCACCAAGGGCCAGAUUCGGAAACUUCAACCU` is recorded as 0.354.

Sample 4
Target: Sal-like protein 4, full length isoform B (SALL4, Homo sapiens, UniProt Q9UJQ4-2, residues 1-616)
Technique: universal PBM
Form: double-stranded DNA, one strand shown
Medium: in vitro
Concentration: not given
Setting: 8-mer, flanks averaged, mean of replicates
Direction: higher = stronger binding
Residues (chain): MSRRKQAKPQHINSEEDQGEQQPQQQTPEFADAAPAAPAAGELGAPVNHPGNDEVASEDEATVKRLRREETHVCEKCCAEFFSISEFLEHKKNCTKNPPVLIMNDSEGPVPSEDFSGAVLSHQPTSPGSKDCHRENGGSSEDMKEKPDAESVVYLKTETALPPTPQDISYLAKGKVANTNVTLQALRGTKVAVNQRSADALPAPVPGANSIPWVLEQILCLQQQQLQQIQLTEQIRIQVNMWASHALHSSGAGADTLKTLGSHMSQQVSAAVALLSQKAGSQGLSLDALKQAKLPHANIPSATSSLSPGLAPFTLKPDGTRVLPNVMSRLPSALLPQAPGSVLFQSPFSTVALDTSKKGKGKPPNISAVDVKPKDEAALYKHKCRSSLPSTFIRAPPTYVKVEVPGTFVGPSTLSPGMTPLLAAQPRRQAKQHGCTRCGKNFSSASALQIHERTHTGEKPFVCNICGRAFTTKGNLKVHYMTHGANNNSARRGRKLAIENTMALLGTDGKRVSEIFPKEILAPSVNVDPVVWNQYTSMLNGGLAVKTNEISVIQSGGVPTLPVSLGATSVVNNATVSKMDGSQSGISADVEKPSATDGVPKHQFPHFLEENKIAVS
`CTTGCAGC` gave an E-score of -0.145.
The E-score of `AGATTAAA` is reported as 0.213.
With `ACCTAGTA` the E-score was 0.0565.
`CTAAGCCC` gave an E-score of -0.145.
`CCCCTAAC` gave an E-score of -0.112.
With `CGTAATAA` the E-score was 0.386.
`TGAGGACA` has an E-score of 0.0179.
`AGCCCGTG` gave an E-score of -0.351.
`CGAATAAA` has an E-score of 0.189.
With `ACGTGATC` the E-score was -0.0049.
The E-score of `AGGCGGCA` is reported as -0.254.
For `AAGCCTCG`, the E-score was -0.207.
`GACTATGA` has an E-score of 0.185.
For `CATTCCCG`, the E-score was -0.0495.
The E-score of `CGTCGCCC` is reported as -0.327.
`CCGTCTGC` has an E-score of -0.256.
With `CAGAAATG` the E-score was 0.098.
The E-score of `CTGGTACC` is reported as -0.24.
`ACCCGCGG` gave an E-score of -0.278.
`CTCCTGAA` has an E-score of -0.0348.

For quick reference, copied from above (sample 3):
`ACUUAAUUUUAAUGUAAUCAUGUCUAAUGAUCCUCAUCUUCAUUCCUUGAGAUUACCCAAGUACCGUCAUGACCAAGAAGCCUUUCCGUCAUUGAGUACCUGAUUUUUAA` — result for “RBNS enrichment (R)”: 0.243.
For `CUGAGGAAUUCUUGUACGCAGUUUUCUUUGGCUUUACGAAGCCGAUUAAAAGACCGUGUGAAAUGAACCUUGCUCUGACAAUUCCCUUGCAUUGCACCACACACUCCUUG`, “RBNS enrichment (R)” read 0.544.
Under “RBNS enrichment (R)”, `ACUUACCACAAUUUGUAACCCUGAAUCUCUCCUGUGCUCUGGUGUUCAGAAAGCUGAGACAGCUGGGCCCAGUUGAUGUUGUACGUGAGAAAGAGGCAGUCUGUUGGAGA` is recorded as 0.301.
For `UAGAAAUUUUGUAAUGUAGAGUUUUAGAGAGAGCACUUUGAAAGAUAAACAUUUUAUUAUGAUGGUGCUAGGUACAAAAUUUAUAGCAUGGGAUGUGAAGAAAAAAAAUG`, “RBNS enrichment (R)” read 10.8.
For `UGACGUAGCCCACGGAGGCAGGCGCUGGAUCGUCACGUCACAUCAGCCCCUGGCGACAAGCAGUGUCUAGAAGAGGAUCUGGAGCCAGGCAGACUGGCUGCUUUUAUUUU`, “RBNS enrichment (R)” read 0.405.
